Assay results of several laboratories.
Parts stem from different laboratories: compare values within a part only. Substitutions count along the parent as printed.

Block 1
Target: Phosphate system positive regulatory protein PHO4, full length, GST-tagged (PHO4, Saccharomyces cerevisiae, UniProt P07270, residues 1-312)
Technique: competition protein-binding microarray
Form: double-stranded DNA, one strand shown
Medium: in vitro
Concentration: 2 µM
Setting: whole 60-bp probe, lowest competitor level
With: Cbf1 competitor, 0.05 µM
Direction: higher = stronger binding
Measurement: fluorescence intensity
Shared flanks, not repeated: … GTCTTGATTCGCTTGACGCTGCTG
Residues (chain): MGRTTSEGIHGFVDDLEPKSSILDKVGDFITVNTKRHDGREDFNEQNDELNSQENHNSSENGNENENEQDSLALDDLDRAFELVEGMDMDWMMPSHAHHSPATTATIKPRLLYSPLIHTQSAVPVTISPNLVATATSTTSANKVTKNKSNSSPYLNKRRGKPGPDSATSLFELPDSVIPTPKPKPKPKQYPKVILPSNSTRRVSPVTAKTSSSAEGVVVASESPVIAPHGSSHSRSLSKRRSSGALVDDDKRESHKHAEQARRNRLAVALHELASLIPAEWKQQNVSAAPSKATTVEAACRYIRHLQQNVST
Sequence = GCAAAAAAAGCCCATCACGTGATGGGGAAGATTTCA; result = 12800 a.u.
Sequence = CTTCTGTAAATTTTTCACGTGATATGACGCGCCCCG; result = 10800 a.u.
Sequence = CTTTCCCGATCTTGTCACCTAACTTTAGCACATTTG; result = 4270 a.u.
Sequence = TTGCCATCCGGATTGAACGTGTAGCAGTTTTTAAAG; result = 9960 a.u.
Sequence = CTTTCCCGATCTTGTCACTATACTTTAGCACATTTG; result = 4420 a.u.
Sequence = GATTCTTCAGTTTAGCACGTGCCGATTTGGCCTCTT; result = 17200 a.u.
Sequence = AAATTACTAAGTTGTAAGGTGGGTGACGCCGTATGA; result = 3810 a.u.

Block 2
Target: Histone acetyltransferase KAT6A, winged helix 2, GST fusion (KAT6A, Homo sapiens, UniProt Q92794, residues 85-181)
Technique: protein binding microarray
Form: double-stranded DNA, one strand shown
Medium: in vitro
Concentration: not given
Setting: 8-mer, flanks averaged, mean of 2 arrays, mostly near background
Reference: not given
Direction: higher = stronger binding
Measurement: E-score
Target sequence (chain): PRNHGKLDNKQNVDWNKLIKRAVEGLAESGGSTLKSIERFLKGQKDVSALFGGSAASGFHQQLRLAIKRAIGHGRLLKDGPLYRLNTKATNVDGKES
Sequence = CCTTCAAA; result = -0.00316
Sequence = AATTACAC; result = -0.00769
Sequence = AGAGTTAG; result = 0.0112
Sequence = CGAGGAGC; result = 0.141
Sequence = ATTTTAGA; result = -0.142
Sequence = GTGAGGTA; result = -0.00526
Sequence = AGATCATC; result = -0.0485

Block 3
Target: CCNB3, cyclin fold, Cln2 fusion (human)
Technique: yeast growth competition, sequencing
Medium: yeast
Setting: strong parent motif
Reference: not given
Direction: higher = stronger binding
Measurement: normalised enrichment score
Parent: RBL2 docking peptide (human); STTRRRLFVENDS; partner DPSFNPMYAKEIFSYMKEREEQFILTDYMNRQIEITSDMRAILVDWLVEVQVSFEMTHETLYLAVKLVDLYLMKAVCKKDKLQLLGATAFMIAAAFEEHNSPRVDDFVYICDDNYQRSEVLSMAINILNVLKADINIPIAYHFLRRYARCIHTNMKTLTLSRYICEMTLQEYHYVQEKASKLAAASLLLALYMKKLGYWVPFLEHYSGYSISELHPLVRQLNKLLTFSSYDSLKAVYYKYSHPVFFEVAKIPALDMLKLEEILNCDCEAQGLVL
Substitution = STTRRRLFVENDG [S13G]; result = 1.22
Substitution = QTTRRRLFVENDS [S1Q]; result = 0.879
Substitution = STTRRRLFVENQS [D12Q]; result = 0.673
Substitution = WTTRRRLFVENDS [S1W]; result = 0.626

Single results of other studies
Substance = PhoQ, residues 284 288 289 292 302 303 NLGVHL; target = PhoP, residues 12 14 15 18 19 QWHVF (Escherichia coli, UniProt P23836); assay = Sort-seq, measured: YFP reporter; test system = E. coli; setting = PhoQ-PhoP variant library, with: 10 µM Mg2+; scale = reference: high Mg2+ state, higher = stronger signaling; measurement = fold induction; result = 9.13
